Published values of several laboratories.
Compare with care: the assays were run in different laboratories. ± marks the error that the study gave.
Cell line: HL-60

c1cc(N2CCCC2)ccc1-c1cc2ncc(OCC3CCNCC3)nc2cc1-c1ccc(N2CCCC2)cc1 gave an EC50 of 5400 ± 130 nM (cell proliferation, XTT; 7 days).
The inhibition of Cc1ccc(Cn2cc(COc3cccc(Cc4cnc(NC(=O)CSc5nc(C)cc(C)n5)s4)c3)nn2)cc1 is reported as 7.7 ± 2% (cell viability, MTS; 10 µM).
With O=C1NC(=NCc2cccs2)S/C1=C\c1ccc2ncccc2c1 the IC50 was 1140 nM (cytotoxicity, MTS; NCI60 panel; acute myeloid leukaemia).
For COc1cnc2cccc(N3CCc4c(cc(Cn5ccnc5C)cc4-c4cn(C)nc4C(F)(F)F)C3=O)c2c1, the EC50 was 13000 nM (cell growth, inhibitor; 120 h).
With Sc1ncnc2nc[nH]c12 the DNA radioactivity was 299 a.u. (radioactive counts; 2 µM, 14C-labelled compound; higher = more incorporation).
For C[C@H]1C2=C(CCN1Cc1cccc(C#N)c1)N1CCN=C1N(Cc1ccc(Br)cc1)C2=O, the IC50 was over 250 nM (cell growth, MTS).
For O=C(c1ccc2[nH]ccc2c1)N1CCN(S(=O)(=O)c2ccc3[nH]c(=O)oc3c2)CC1, “6-thio-GTP in RNA” read 8.8 a.u. (NUDT15 inhibitor, mass spectrometry; 10 µM, 16 h, together with: 6-thioguanine 0 µM; higher = more incorporation).
C[C@@H]1CC2=C(CN1Cc1cccc(C#N)c1)C(=O)N(Cc1cccc(Br)c1)C1=NCCN12 gave an IC50 of 22.4 ± 1.62 nM (cell growth, MTS).
c1ccc(COc2ccc(Nc3ccc4ncc(OCC5CCNCC5)nc4c3)cc2)cc1 has an EC50 of 1400 ± 400 nM (cell proliferation, XTT; 7 days).
For C=Cc1c(C)c2cc3nc(c4c5[nH]c(cc6nc(cc1[nH]2)C(C)=C6CC)c(C)c5C(=O)C4)[C@@H](CCC(=O)O)[C@@H]3C, “time of peak fluorescence” read 1 h (cell entry, flow cytometry; 50% human serum).
With COc1ccc(C(=O)CC(=O)c2ccc(C(C)(C)C)cc2)cc1 the phototoxicity index was 1 (baseline: dark IC50 over light IC50).
For C[C@@H]1CC2=C(CN1Cc1cccc(C#N)c1)C(=O)N(Cc1ccc3ccccc3c1)C1=NCCN12, the IC50 was 25.3 ± 0.48 nM (cell growth, MTS).
With Cc1cc(C)nc(SCC(=O)Nc2ncc(Cc3cccc(OCc4cn(Cc5ccc(OCCN6CCOCC6)cc5)nn4)c3)s2)n1 the inhibition was 13.4 ± 9% (cell viability, MTS; 10 µM).
Cc1cc(C)n(C(=S)[S][Au][PH](CCCCCC[PH]([Au][S]C(=S)n2nc(C)cc2C)(c2ccccc2)c2ccccc2)(c2ccccc2)c2ccccc2)n1 has a log10 TGI of -6.19 (cell growth, NCI-60 screen; leukemia).
With c1cc(-c2cc3ncc(OCC4CCNCC4)nc3cc2-c2cccc(N3CCCCC3)c2)cc(N2CCCCC2)c1 the EC50 was 890 ± 260 nM (cell proliferation, XTT; 7 days).
C[C@@H]1CC2=C(CN1Cc1cccc(C#N)c1)C(=O)N(Cc1ccc(F)c(C(F)(F)F)c1)C1=NCCN12 gave an IC50 of 12.8 ± 1.15 nM (cell growth, MTS).
With CCn1cc(-c2cc(Cn3ccoc3=N)cc3c2CCN([C@@H](C)c2cc(OC)ccn2)C3=O)c(C(F)(F)F)n1 the EC50 was 24 nM (cell growth, inhibitor; 120 h).

Some of these lines once more:
For C=Cc1c(C)c2cc3nc(c4c5[nH]c(cc6nc(cc1[nH]2)C(C)=C6CC)c(C)c5C(=O)C4)[C@@H](CCC(=O)O)[C@@H]3C, “time of peak fluorescence” read 1 h (cell entry, flow cytometry; 50% human serum).
